Measured values collected from several papers.
Each line is one published result; not all experiments were run side by side.

SMILES	test system	setting	Tmax
CC(=O)N[C@H](CC(=O)O)C(=O)N[C@H](Cc1c[nH]c2ccccc12)C(=O)N[C@H](Cc1ccccc1)C(=O)N[C@H](CCCCN)C(=O)N[C@H](C)C(=O)N[C@H](Cc1ccccc1)C(=O)N[C@H](Cc1ccc(O)cc1)C(=O)N[C@H](CC(=O)O)C(=O)N[C@H](CCCCN)C(=O)N[C@@H](C(=O)N[C@H](C)C(=O)N[C@H](CCC(=O)O)C(=O)N[C@H](CCCCN)C(=O)N[C@H](Cc1ccccc1)C(=O)N[C@H](CCCCN)C(=O)N[C@H](CCC(=O)O)C(=O)N[C@H](C)C(=O)N[C@H](Cc1ccccc1)C(N)=O)C(C)C	human, statin-treated high-risk CHD, both sexes, plasma	oral, 500 mg daily, day 13, mean, detected subjects only	1.65 h
CCCCCCCCCC(O)CC(=O)CCc1ccc(O)c(OC)c1 (stereo not shown)	healthy Indonesian humans, plasma	oral, 2 g red ginger suspension, single dose	0.633 h
Cc1ccccc1-c1cc(N2CC[N+](C)([O-])CC2)ncc1N(C)C(=O)C(C)(C)c1cc(C(F)(F)F)cc(C(F)(F)F)c1	human, plasma	dose not given	~5 h
O=C(CCc1ccc(CNC(C(=O)O)C2CCCCC2)cn1)NO (stereo not shown)	human	oral, multiple dose	< 1 h
CCc1c2c(nc3ccc(O)cc13)-c1cc3c(c(=O)n1C2)COC(=O)[C@]3(O)CC	human patients, plasma	intravenous, 100 mg/m^2 of parent drug	1.86 h
CC(C)(O)c1ncc([S@](N)(=O)=NC(=O)Nc2c3c(cc4c2CCC4)CCC3)s1	healthy human, fasted	oral, 100 mg single dose, spray-dried dispersion	3 h
CCc1cc(Nc2nc(-c3ccc(-n4cnc(C)c4)c(F)c3)cs2)c(C)cc1C	human, both sexes, plasma	oral, 400 mg, day 1, multiple dose, geometric mean	5 h
CC12CC(c3ccc(S(C)(=O)=O)cc3)C3=C4CCC(=O)C=C4CCC3C1CCC2(O)C(F)(F)C(F)(F)F (stereo not shown)	human, fasted, plasma	oral, 5 mg, [14C]-labelled, single dose, median	1 h
Cc1ccccc1-c1cc(N2CCNCC2)ncc1N(C)C(=O)C(C)(C)c1cc(C(F)(F)F)cc(C(F)(F)F)c1	human, plasma	dose not given	10 to 17 h
CN1CCC[C@]1(C)/C=C/S(=O)(=O)NC(=O)Nc1c2c(cc3c1CCC3)CCC2	human, fasted, plasma	oral, 25 to 400 mg, single dose, median	1 to 1.5 h
CCCCCCCCCCCCCCCC(=O)N[C@@H](CCCCN)C(=O)N[C@@H](CCCCN)C(=O)N[C@@H](CO)C(=O)N[C@@H](CCCNC(=N)N)C(=O)N[C@@H](C)C(=O)N[C@@H](CC(C)C)C(=O)N[C@@H](Cc1ccccc1)C(N)=O	human, PCI patients, plasma	intravenous, dose not given, end of infusion	2 h
O=C(CCc1ccc(CNC(C(=O)OC2CCCC2)C2CCCCC2)cn1)NO (stereo not shown)	human	oral, multiple dose	< 1 h
CC(O)c1nc(-c2ccc3c(c2)CCC3NC(=O)c2cnn(C)c2)no1 (stereo not shown)	human, plasma	oral, 20 mg, single dose, median	5 h
CCCCCCCOc1ccc(CC[C@](N)(CO)COP(=O)(O)O)cc1C(F)(F)F	healthy human males, plasma	oral, 0.125 to 0.75 mg, day 21, median across doses	8 to 12 h
Cc1nc(C)c(C=[N+]([O-])C(C)(C)C)nc1C	healthy Chinese human, both sexes, serum	oral, 600 mg twice daily, 7 days	3.38 h
Cn1c(=O)oc2ccc(-c3ccc(CC(C#N)NC(=O)C4CNCCCO4)c(F)c3)cc21 (stereo not shown)	human, fed, plasma	40 mg single dose, median	4 h

Repeated from above:
SMILES	test system	setting	Tmax
CCCCCCCOc1ccc(CC[C@](N)(CO)COP(=O)(O)O)cc1C(F)(F)F	healthy human males, plasma	oral, 0.125 to 0.75 mg, day 21, median across doses	8 to 12 h
Cc1nc(C)c(C=[N+]([O-])C(C)(C)C)nc1C	healthy Chinese human, both sexes, serum	oral, 600 mg twice daily, 7 days	3.38 h
